Results pooled from the literature.
A part holds a random share of what one study measured. Positions count from the first letter of the parent shown.

Series 1
Target: CCNF, cyclin fold, Cln2 fusion (human)
Technique: yeast growth competition, sequencing
Matrix: yeast
Notes: weak parent motif
Reference: not given
Reading: higher = stronger binding
Starting sequence: WEE2 docking peptide (human); KELRQKLNFSYCE
Substitution | normalised enrichment score
Q5A | 0.755
C12A | 0.307
E2A | 1.76
K1A | 0.238
N8A | 0.869
E13A | 1.27
L3A | 1.64

Series 2
Target: Interferon regulatory factor 7, full length, phosphomimetic (IRF7, Homo sapiens, UniProt Q92985, residues 1-503, S471D/S472D/S475D/S476D/S477D/S483D/S484D/S487D)
Technique: protein-binding microarray
Form: double-stranded DNA, one strand shown
Matrix: in vitro
Tested at: 2200 nM top
Notes: 60-bp whole probe
With: salmon DNA 0.4 mg/ml
Reference: random background probes
Reading: higher = stronger binding
All sequences stand within: GCCTAGCAC … GTCTTGATTCGCTTGACGCTGCTG
Residues (chain): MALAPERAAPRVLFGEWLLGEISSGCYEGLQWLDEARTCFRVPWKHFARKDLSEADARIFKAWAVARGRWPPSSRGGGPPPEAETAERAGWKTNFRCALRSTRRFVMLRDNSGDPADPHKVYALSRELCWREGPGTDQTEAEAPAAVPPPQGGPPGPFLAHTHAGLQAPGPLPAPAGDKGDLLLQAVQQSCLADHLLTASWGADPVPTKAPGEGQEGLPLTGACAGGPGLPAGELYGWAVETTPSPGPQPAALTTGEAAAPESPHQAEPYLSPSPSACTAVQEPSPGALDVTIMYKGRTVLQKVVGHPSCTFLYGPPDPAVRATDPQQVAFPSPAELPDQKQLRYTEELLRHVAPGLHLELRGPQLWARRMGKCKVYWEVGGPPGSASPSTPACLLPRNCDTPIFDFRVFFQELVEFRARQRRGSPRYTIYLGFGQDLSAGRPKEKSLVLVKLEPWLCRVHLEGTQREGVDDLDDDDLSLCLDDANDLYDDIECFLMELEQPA
Oligonucleotide | fitted relative affinity [z-score]
TTAGGTGTCCTTCTCCTTTAGTGCTAG | 0.962
GACGGACTGGGGACTGGGGATGTGCTA | -0.61
TTCGGTTCCCTTTTCCTTTAGTGCTAG | 4.65
GACGGTTTCGACACAGGGGACGTGCTA | 2.93
TTAGAACTGATTATCGATTAGTGCTAG | -0.189
GACGGACTGGGTACTGGGGACGTGCTA | -1.09
ACACTCTTCTTTTGCTAATTGTGCTAG | 1.96
TTAGATTTCAGTTCCGATTGGTGCTAG | 2.6
TCAGGTCTGTTTCTGATACTGTGCTAG | 1.29
TTTTTTTTTTTTTTTGGAATGTGCTAG | 1.8
ATAGGTATCGGTATCGGTTAGTGCTAG | 1.06
ATTTGCTTCAGGTTTACCAGAGTGCTA | 1.44
TCACCTCTGGGATCCCAGACTGTGCTA | 0.483
CATCATTGCCTATTTTTCCCCGTGCTA | 1.65
TCATGTTTGTCACTCTCACTGTGCTAG | 2.19
TCACTACTGCATTTTTTACTGTGCTAG | 1.15

Series 3
Target: TAR DNA-binding protein 43, full length, His tag (TARDBP, Homo sapiens, UniProt Q13148, residues 1-414)
Technique: RNA Bind-n-Seq
Form: RNA
Matrix: in vitro
Tested at: 20 nM
Notes: 6-mer, flanks averaged, single round
With: 150 mM LiCl
Reference: input library
Reading: higher = stronger binding
Oligonucleotide | 6-mer enrichment (R)
CUCGCC | 0.877
GGCUCU | 0.901
UUUAGA | 0.971
CAGAUU | 0.814
CUGCUC | 0.889
AACUCA | 0.87
AAGUAA | 0.863
UGCCGU | 0.964
CUAAUA | 0.953
CGGAUA | 0.893
GGGAUC | 1.02
CGCAGU | 0.926
GGUAAC | 0.885
GUUUCC | 1.02
CUGCAG | 0.906
AGAGCC | 0.912
AAUGAG | 1.07
CGUCUG | 0.922

Series 4
Target: RING finger protein unkempt homolog, zinc fingers 1-6, GST-SBP tag (UNK, Homo sapiens, UniProt Q9C0B0, residues 30-357)
UniProt Q9C0B0, sequence (30-357, looked up): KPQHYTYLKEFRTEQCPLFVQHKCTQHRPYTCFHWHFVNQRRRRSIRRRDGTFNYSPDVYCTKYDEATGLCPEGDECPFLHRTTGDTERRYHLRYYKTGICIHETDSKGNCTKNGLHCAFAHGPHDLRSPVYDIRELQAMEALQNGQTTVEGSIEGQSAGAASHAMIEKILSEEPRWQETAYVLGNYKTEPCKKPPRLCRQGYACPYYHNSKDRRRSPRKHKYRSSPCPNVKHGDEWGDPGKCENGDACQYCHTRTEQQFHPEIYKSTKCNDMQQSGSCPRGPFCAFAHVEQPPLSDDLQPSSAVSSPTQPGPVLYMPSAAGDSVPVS
Technique: RNA Bind-n-Seq
Form: RNA
Matrix: in vitro
Tested at: not given
Notes: RNA with constant flanks, human and mouse sites, ends assumed
Reference: input RNA pool
Reading: higher = stronger binding
All sequences stand within: GGGAGUUCUACAGUCCGACGAUC … CAACAGAGGAUUGAGCAUCA
Oligonucleotide | bound/input enrichment [ratio]
GUCAGCUCACAAAAUCUAGUGGCAAUACCAGUGUAUGUGAAACAUAGUAUCAGCUUUAAGGAGAACAGUUCUUGCGGCAGAUUUGAUAUAACAAUUGGACCAAAGCAGAAUAUGGGGAAA | 0.805
CAAGAGCUGAGGGUAAGGGCAGGUAGGCGUGAGGCUGUGGACAUUUUCGGAAUGUUUUGGUUUUGUUUUUUUUAAACCGGGCAAUAUUGUGUUCAGUUCAAGCUGUGAAGAAAAAUAUAU | 0.232
UCGGUACUUGAUGCAGCUCUUCAUCCUCCACCCCGCGGACCUUUUCCUCCAGGAGAUCUUUUCAGUCAGCCAGAAAGACCUUUUCUGGCCCCUGGAAGACCAAGUAUAGACAAUGUUCCC | 0.258
GCAGCGUGUGUGCCAAAACUCCCAUUCUCCUACCCCACUCCACCUUUCCUAGUGCUGAGAAUCUAAAUGGUGCCAACCAACACUGGGCUGUCUAUCACCUGUAAAUAUGAACACAGUCCC | 0.383
GAGAACUUGCAUGAUGUUGCCUACAAGAAUGCCUUGGCUAAUCCUUUGUACUGUCCUGACUAUAGGAUGGGGAAGAUAACAUCAGAGGAAUUACAUUACUUUGUUCAGAACCACUUCACA | 0.163
GCACUUCUCAAAUACUGGCCAAAGACUCACAGUCCAAAAGAAGUAAUGUUCUUAAAUGAAUUAGAAGAAAUUUUAGAUGUAAUUGAACCAUCAGAGUUUGUGAAGAUCAUGGAGCCUCUU | 0.839
UUUGGUCUGGGCAGUGAAUCUCCCUAUAAGCAGCCUUCUGAUGGAAUGGAGAGACCAUCUUCCCUGAUGGACUCUUCACAGGAAAAGUUCUACCCAGAUACUUCUUUCCAAGAAGAUGAG | 0.104
UCCCCACCGGCAAUGGAGCGGUUGACGUUGCCUCUCGGCGGCGCGGCGGCGGUGGACGAGUACCUGGAGUACCGGAGGUAUAAACAACAUAAAACUGACUUGGAAGCGAUUCCUCAGCAG | 0.243

Some of these lines once more (series 4):
Oligonucleotide | bound/input enrichment [ratio]
GAGAACUUGCAUGAUGUUGCCUACAAGAAUGCCUUGGCUAAUCCUUUGUACUGUCCUGACUAUAGGAUGGGGAAGAUAACAUCAGAGGAAUUACAUUACUUUGUUCAGAACCACUUCACA | 0.163
GCACUUCUCAAAUACUGGCCAAAGACUCACAGUCCAAAAGAAGUAAUGUUCUUAAAUGAAUUAGAAGAAAUUUUAGAUGUAAUUGAACCAUCAGAGUUUGUGAAGAUCAUGGAGCCUCUU | 0.839
UUUGGUCUGGGCAGUGAAUCUCCCUAUAAGCAGCCUUCUGAUGGAAUGGAGAGACCAUCUUCCCUGAUGGACUCUUCACAGGAAAAGUUCUACCCAGAUACUUCUUUCCAAGAAGAUGAG | 0.104
UCCCCACCGGCAAUGGAGCGGUUGACGUUGCCUCUCGGCGGCGCGGCGGCGGUGGACGAGUACCUGGAGUACCGGAGGUAUAAACAACAUAAAACUGACUUGGAAGCGAUUCCUCAGCAG | 0.243
